Experimental data from different studies.
Numbers after ± are the reported error.
U2AF2: U2AF2 148-342 (Homo sapiens, UniProt P26368)
Sequence of UniProt P26368 (whole entry, looked up): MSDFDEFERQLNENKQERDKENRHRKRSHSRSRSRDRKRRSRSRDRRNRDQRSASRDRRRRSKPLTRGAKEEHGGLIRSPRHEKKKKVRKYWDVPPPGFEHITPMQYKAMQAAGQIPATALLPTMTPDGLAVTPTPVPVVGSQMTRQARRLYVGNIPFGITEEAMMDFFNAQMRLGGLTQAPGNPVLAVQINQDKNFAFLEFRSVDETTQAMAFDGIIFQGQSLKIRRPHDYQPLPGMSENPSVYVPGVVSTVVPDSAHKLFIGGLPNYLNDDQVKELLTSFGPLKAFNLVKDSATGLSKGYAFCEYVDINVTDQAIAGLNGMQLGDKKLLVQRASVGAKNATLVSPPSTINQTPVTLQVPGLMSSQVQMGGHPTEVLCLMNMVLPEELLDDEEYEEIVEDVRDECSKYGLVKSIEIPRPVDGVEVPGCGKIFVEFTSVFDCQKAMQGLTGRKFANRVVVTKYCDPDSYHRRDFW
T1: TOA1/TOA2 1-286; 1-122 (Saccharomyces cerevisiae); chain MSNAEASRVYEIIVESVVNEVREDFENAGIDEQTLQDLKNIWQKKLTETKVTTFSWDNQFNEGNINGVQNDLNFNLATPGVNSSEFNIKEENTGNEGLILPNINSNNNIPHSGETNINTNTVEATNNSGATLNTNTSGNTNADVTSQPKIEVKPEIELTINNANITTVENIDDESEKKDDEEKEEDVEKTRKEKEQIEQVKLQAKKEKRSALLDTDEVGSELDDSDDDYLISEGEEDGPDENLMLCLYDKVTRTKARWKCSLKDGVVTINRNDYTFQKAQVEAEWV; chain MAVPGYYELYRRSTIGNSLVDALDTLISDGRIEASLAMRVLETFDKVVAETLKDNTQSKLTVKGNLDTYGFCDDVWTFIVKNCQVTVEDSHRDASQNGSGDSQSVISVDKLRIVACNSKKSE
B1: human AMPD2; sequence looked up; chain MASYPSGSGKPKAKYPFKKRASLQASTAAPEARGGLGAPPLQSARSLPGPAPCLKHFPLDLRTSMDGKCKEIAEELFTRSLAESELRSAPYEFPEESPIEQLEERRQRLERQISQDVKLEPDILLRAKQDFLKTDSDSDLQLYKEQGEGQGDRSLRERDVLEREFQRVTISGEEKCGVPFTDLLDAAKSVVRALFIREKYMALSLQSFCPTTRRYLQQLAEKPLETRTYEQGPDTPVSADAPVHPPALEQHPYEHCEPSTMPGDLGLGLRMVRGVVHVYTRREPDEHCSEVELPYPDLQEFVADVNVLMALIINGPIKSFCYRRLQYLSSKFQMHVLLNEMKELAAQKKVPHRDFYNIRKVDTHIHASSCMNQKHLLRFIKRAMKRHLEEIVHVEQGREQTLREVFESMNLTAYDLSVDTLDVHADRNTFHRFDKFNAKYNPIGESVLREIFIKTDNRVSGKYFAHIIKEVMSDLEESKYQNAELRLSIYGRSRDEWDKLARWAVMHRVHSPNVRWLVQVPRLFDVYRTKGQLANFQEMLENIFLPLFEATVHPASHPELHLFLEHVDGFDSVDDESKPENHVFNLESPLPEAWVEEDNPPYAYYLYYTFANMAMLNHLRRQRGFHTFVLRPHCGEAGPIHHLVSAFMLAENISHGLLLRKAPVLQYLYYLAQIGIAMSPLSNNSLFLSYHRNPLPEYLSRGLMVSLSTDDPLQFHFTKEPLMEEYSIATQVWKLSSCDMCELARNSVLMSGFSHKVKSHWLGPNYTKEGPEGNDIRRTNVPDIRVGYRYETLCQELALITQAVQSEMLETIPEEAGITMSPGPQ
B2: plakophilin-1 (human); sequence looked up; chain MNHSPLKTALAYECFQDQDNSTLALPSDQKMKTGTSGRQRVQEQVMMTVKRQKSKSSQSSTLSHSNRGSMYDGLADNYNYGTTSRSSYYSKFQAGNGSWGYPIYNGTLKREPDNRRFSSYSQMENWSRHYPRGSCNTTGAGSDICFMQKIKASRSEPDLYCDPRGTLRKGTLGSKGQKTTQNRYSFYSTCSGQKAIKKCPVRPPSCASKQDPVYIPPISCNKDLSFGHSRASSKICSEDIECSGLTIPKAVQYLSSQDEKYQAIGAYYIQHTCFQDESAKQQVYQLGGICKLVDLLRSPNQNVQQAAAGALRNLVFRSTTNKLETRRQNGIREAVSLLRRTGNAEIQKQLTGLLWNLSSTDELKEELIADALPVLADRVIIPFSGWCDGNSNMSREVVDPEVFFNATGCLRKRLGMRELLALVPQRATSSRVNLSSADAGRQTMRNYSGLIDSLMAYVQNCVAASRCDDKSVENCMCVLHNLSYRLDAEVPTRYRQLEYNARNAYTEKSSTGCFSNKSDKMMNNNYDCPLPEEETNPKGSGWLYHSDAIRTYLNLMGKSKKDATLEACAGALQNLTASKGLMSSGMSQLIGLKEKGLPQIARLLQSGNSDVVRSGASLLSNMSRHPLLHRVMGNQVFPEVTRLLTSHTGNTSNSEDILSSACYTVRNLMASQPQLAKQYFSSSMLNNIINLCRSSASPKAAEAARLLLSDMWSSKELQGVLRQQGFDRNMLGTLAGANSLRNFTSRF
B3: adiponectin; sequence looked up; chain ETTTQGPGVLLPLPKGACTGWMAGIPGHPGHNGAPGRDGRDGTPGEKGEKGDPGLIGPKGDIGETGVPGAEGPRGFPGIQGRKGEPGEGAYVYRSAFSVGLETYVTIPNMPIRFTKIFYNQQNHYDGSTGKFHCNIPGLYYFAYHITVYMKDVKVSLFKKDKAMLFTYDQYQENNVDQASGSVLLHLEVGDQVWLQVYGEGERNGLYADNDNDSTFTGFLLYHDTN
B4: human AP2A2; sequence looked up; chain MPAVSKGDGMRGLAVFISDIRNCKSKEAEIKRINKELANIRSKFKGDKALDGYSKKKYVCKLLFIFLLGHDIDFGHMEAVNLLSSNRYTEKQIGYLFISVLVNSNSELIRLINNAIKNDLASRNPTFMGLALHCIASVGSREMAEAFAGEIPKVLVAGDTMDSVKQSAALCLLRLYRTSPDLVPMGDWTSRVVHLLNDQHLGVVTAATSLITTLAQKNPEEFKTSVSLAVSRLSRIVTSASTDLQDYTYYFVPAPWLSVKLLRLLQCYPPPDPAVRGRLTECLETILNKAQEPPKSKKVQHSNAKNAVLFEAISLIIHHDSEPNLLVRACNQLGQFLQHRETNLRYLALESMCTLASSEFSHEAVKTHIETVINALKTERDVSVRQRAVDLLYAMCDRSNAPQIVAEMLSYLETADYSIREEIVLKVAILAEKYAVDYTWYVDTILNLIRIAGDYVSEEVWYRVIQIVINRDDVQGYAAKTVFEALQAPACHENLVKVGGYILGEFGNLIAGDPRSSPLIQFHLLHSKFHLCSVPTRALLLSTYIKFVNLFPEVKPTIQDVLRSDSQLRNADVELQQRAVEYLRLSTVASTDILATVLEEMPPFPERESSILAKLKKKKGPSTVTDLEDTKRDRSVDVNGGPEPAPASTSAVSTPSPSADLLGLGAAPPAPAGPPPSSGGSGLLVDVFSDSASVVAPLAPGSEDNFARFVCKNNGVLFENQLLQIGLKSEFRQNLGRMFIFYGNKTSTQFLNFTPTLICSDDLQPNLNLQTKPVDPTVEGGAQVQQVVNIECVSDFTEAPVLNIQFRYGGTFQNVSVQLPITLNKFFQPTEMASQDFFQRWKQLSNPQQEVQNIFKAKHPMDTEVTKAKIIGFGSALLEEVDPNPANFVGAGIIHTKTTQIGCLLRLEPNLQAQMYRLTLRTSKEAVSQRLCELLSAQF
B5: human P4HA1; sequence looked up; chain HPGFFTSIGQMTDLIHTEKDLVTSLKDYIKAEEDKLEQIKKWAEKLDRLTSTATKDPEGFVGHPVNAFKLMKRLNTEWSELENLVLKDMSDGFISNLTIQRQYFPNDEDQVGAAKALLRLQDTYNLDTDTISKGNLPGVKHKSFLTAEDCFELGKVAYTEADYYHTELWMEQALRQLDEGEISTIDKVSVLDYLSYAVYQQGDLDKALLLTKKLLELDPEHQRANGNLKYFEYIMAKEKDVNKSASDDQSDQKTTPKKKGVAVDYLPERQKYEMLCRGEGIKMTPRRQKKLFCRYHDGNRNPKFILAPAKQEDEWDKPRIIRFHDIISDAEIEIVKDLAKPRLRRATISNPITGDLETVHYRISKSAWLSGYENPVVSRINMRIQDLTGLDVSTAEELQVANYGVGGQYEPHFDFARKDEPDAFKELGTGNRIATWLFYMSDVSAGGATVFPEVGASVWPKKGTAVFWYNLFASGEGDYSTRHAACPVLVGNKWVSNKWLHERGQEFRRPCTLSELE
B6: PP4 catalytic subunit (human); sequence looked up; chain AEISDLDRQIEQLRRCELIKESEVKALCAKAREILVEESNVQRVDSPVTVCGDIHGQFYDLKELFRVGGDVPETNYLFMGDFVDRGFYSVETFLLLLALKVRYPDRITLIRGNHESRQITQVYGFYDECLRKYGSVTVWRYCTEIFDYLSLSAIIDGKIFCVHGGLSPSIQTLDQIRTIDRKQEVPHDGPMCDLLWSDPEDTTGWGVSPRGAGYLFGSDVVAQFNAANDIDMICRAHQLVMEGYKWHFNETVLTVWSAPNYCYRCGNVAAILELDEHLQKDFIIFEAAPQETRGIPSKKPVADYFL

RTDPIPLSF — GFP-positive cells (Jurkat expressing engineered TCR; NFAT-eGFP reporter, fluorescence microscopy; peptide; concentration not given, HLA-A*01:01 on EL4 cells): 0.504%
B1 (human AMPD2) — log2 fold change (CYB5R4 knockout human cells; PP4 interaction, 3xFLAG-PP4C IP-MS; concentration not given; relative to: CYB5R4 KO over parental): -1.36
MTVCNASQRQAHAQATAVSL — selectivity ratio (HCC15 lung squamous carcinoma; phage binding output/input; peptide; relative to: control phage): 14 ± 4.2
YTDPIEDTF — GFP-positive cells (Jurkat NFAT-eGFP expressing engineered TCR; NFAT reporter gene; peptide; concentration not given, HLA-A*01:01 presentation): 0.67%
epoetin alfa — mRNA level (UT7/EPO; microarray, item: FOS (probe 209189_at); 5 U/mL, 90 min, added: SCF 10 nM; relative to: vehicle): 4.6 fold
Ac-LRKLRKRLLRDWLKAFYDKVAEKLKEAF-NH2 (N-acetyl, C-amide) — cholesterol efflux (THP-1 macrophages; peptide; 10 µg/mL, added: [3H]-cholesterol loading; relative to: control): 10%
ELDPIGLEY — GFP-positive cells (Jurkat expressing engineered TCR; NFAT-eGFP reporter, fluorescence microscopy; peptide; concentration not given, HLA-A*01:01 on EL4 cells): 6.77%
B2 (plakophilin-1) — log2 fold change (CYB5R4 knockout human cells; PP6 interaction, 3xFLAG-PP6C IP-MS; concentration not given; relative to: CYB5R4 KO over parental): 1.59
YLEPIQLEY — GFP-positive cells (Jurkat expressing engineered TCR; NFAT-eGFP reporter, fluorescence microscopy; peptide; concentration not given, HLA-A*01:01 on EL4 cells): 0.506%
human RANBP2 — log2 fold change (CYB5R4 knockout human cells; PP4 interaction, 3xFLAG-PP4C IP-MS; concentration not given; relative to: CYB5R4 KO over parental): -0.73
B3 (adiponectin) — mRNA level (HUVEC; real-time PCR, item: VCAM-1; 15 µg/mL, 24 h, unit not given, added: TNF-α and IFN-γ; relative to: stimulated untreated): 0.84 ± 0.09
PFVYLIRFHRFHRFHGGGSSSQLSRP — transfection efficiency (HEK293T; circRNA delivery, item: mCherry; peptide; concentration not given, 48 h): ~95%
B4 (human AP2A2) — log2 fold change (CYB5R4 knockout human cells; PP4 interaction, 3xFLAG-PP4C IP-MS; concentration not given; relative to: CYB5R4 KO over parental): -0.42
TTGTGCTACGGTCTCTCCACCCCCTGCTGCTGCTGTCAAGTCAATCGGTCC (dsDNA; 5'-amino-C6 primer) — Kd (T1, TOA1/TOA2 1-286; 1-122 (Saccharomyces cerevisiae); array; double-stranded DNA, one strand shown; TFIIA alone): 0.109 ± 0.0469 µM
Peginesatide — phosphorylation level (UT7/EPO; tyrosine phosphorylation, LC-MS/MS phosphoproteomics, GluC, item: SHIP2 tyrosine 1135; 10 nM, 15 min, added: 10 U/mL EPO; relative to: vehicle): 12.7 fold
B5 (human P4HA1) — log2 fold change (CYB5R4 knockout human cells; PP6 interaction, 3xFLAG-PP6C IP-MS; concentration not given; relative to: CYB5R4 KO over parental): 1.67
LSDIIPLDY — GFP-positive cells (Jurkat expressing engineered TCR; NFAT-eGFP reporter, fluorescence microscopy; peptide; concentration not given, HLA-A*01:01 on EL4 cells): 0.45%
GGUUUUGUU (ssRNA) — Kd (U2AF2; sequencing of bound RNA; RNA; motif only): 5.79 µM
B6 (PP4 catalytic subunit) — log2 fold change (CYB5R4 knockout human cells; PP4 interaction, 3xFLAG-PP4C IP-MS; concentration not given; relative to: CYB5R4 KO over parental): 0
UUUGUAAUU (ssRNA) — Kd (U2AF2; sequencing of bound RNA; RNA; motif only): 9 µM
GADPIQLGY — GFP-positive cells (Jurkat expressing engineered TCR; NFAT-eGFP reporter, fluorescence microscopy; peptide; concentration not given, HLA-A*01:01 on EL4 cells): 0.517%

For quick reference, copied from above:
PFVYLIRFHRFHRFHGGGSSSQLSRP — transfection efficiency (HEK293T; circRNA delivery, item: mCherry; peptide; concentration not given, 48 h): ~95%
YLEPIQLEY — GFP-positive cells (Jurkat expressing engineered TCR; NFAT-eGFP reporter, fluorescence microscopy; peptide; concentration not given, HLA-A*01:01 on EL4 cells): 0.506%
B2 (plakophilin-1) — log2 fold change (CYB5R4 knockout human cells; PP6 interaction, 3xFLAG-PP6C IP-MS; concentration not given; relative to: CYB5R4 KO over parental): 1.59
